Assay results gathered from unrelated publications.
Lines come from different studies, so protocols differ. ± marks the error that the study gave.
Cell line: A549

Structure (SMILES) | assay | conditions | IC50
N.N.[Cl][Pt][Cl] | cell viability, MTT | 4 h, with: cimetidine 3 mmol/L | 19.4 ± 8.23 µM
CCN.CCN.O=C([O-])CC(=O)[O-].O=C([O-])CC(=O)[O-].[Pt+4] | cell viability, MTT | 96 h | > 200 µM
O=[N+]([O-])[O-].O=[N+]([O-])[O-].[Co+2] | cell viability, MTT | 24 h then 48 h recovery, normoxia | > 500 µM
CO[C@H]1/C=C\C=C(/C)C(=O)NC2=CC(=O)C(NCCN(C)C)=C(C[C@@H](C)C[C@H](OC)[C@H](O)[C@@H](C)/C=C(\C)[C@@H]1OC(N)=O)C2=O | cell growth or viability, resazurin | 5 days | < 0.01 µM
NC([S-])=NN=CC=NN=C(N)[S-].O=[N+]([O-])[O-].[Co+3].c1c[nH]cn1.c1c[nH]cn1 | cell viability, MTT | 24 h hypoxic, 48 h normoxic, hypoxic treatment | 2.9 ± 0.7 µM
N.N.[Cl][Pt][Cl] | cell viability, MTT | 72 h | 5.63 ± 0.49 µM
COC(=O)/C=C/c1cc(O)ccc1O | cell growth or viability, resazurin | 5 days | > 10 µM
N.N.[Cl][Pt][Cl] | cell viability, MTT | 48 h | 22.4 ± 0.64 µM
N.N.[Cl][Pt][Cl] | cell viability, MTT | 24 h hypoxic, 48 h normoxic, hypoxic treatment | 5.2 ± 2.4 µM
C[C@H]1C[C@H]2[C@@H]3CCC4=CC(=O)C=C[C@]4(C)[C@@]3(Cl)[C@@H](O)C[C@]2(C)[C@@]1(O)C(=O)CO | cell growth or viability, resazurin | 5 days | > 10 µM
NC(=S)N/N=C/C=N/NC(N)=S | cell viability, MTT | 24 h hypoxic, 48 h normoxic, hypoxic treatment | 0.04 ± 0.01 µM
CC[C@H](C)[C@H](NC(=O)[C@@H](N)Cc1ccccc1)C(=O)NCC(=O)N[C@H](C(=O)N[C@@H](CC(C)C)C(=O)N[C@H](C(=O)N1CCC[C@H]1C(=O)N[C@@H](CC(C)C)C(=O)N[C@@H](C)C(=O)N[C@@H](CC(C)C)C(=O)NCC(=O)N[C@@H](C)C(=O)N[C@@H](CC(C)C)C(=O)N[C@H](C(=O)N[C@@H](CCCCN)C(=O)N[C@@H](CC(C)C)C(=O)N[C@@H](Cc1ccccc1)C(=O)N[C@@H](CCCCN)C(N)=O)[C@@H](C)O)[C@@H](C)CC)[C@@H](C)O | cell growth or viability, CCK-8 | 24 h | 14.1 µM

Repeated from above:
Structure (SMILES) | assay | conditions | IC50
N.N.[Cl][Pt][Cl] | cell viability, MTT | 4 h, with: cimetidine 3 mmol/L | 19.4 ± 8.23 µM
